Published values of several laboratories.
Lines come from different studies, so protocols differ.

SMILES | tested on | assay | system | conditions | how to read | quantity | value
Cn1cc(Nc2nccc(-c3ccc4c(c3)CN(C3COC3)CC[C@H]4NC(=O)c3cn(C(C)(C)C)nn3)n2)cn1 | – | item: PPAR signalling | mouse splenic B cells, mouse | 30 mg/kg, IgD-activated B cells in vivo | reference: vehicle, direction not given | pathway activation z-score | 1.39
C[C@H](Oc1ccc(Br)cc1-c1ccon1)C(=O)O | – | MVRC latency | human, tibialis anterior muscle | 200 mg, SAD | – | difference from placebo | -0.166 ms
N#Cc1ccc2c(-c3ccncc3)c(-c3ccc(F)cc3)nn2c1 | – | kinase binding, competitor, MIB/MS competition, item: PBS2 | Candida albicans cell lysate | 10 µM | reference: DMSO | log2 fold change | -0.169
CCCCCN1C[C@H](O)[C@@H](O)[C@H](O)[C@@H]1CO | – | mRNA sequencing | mouse Hexb-/-, hippocampus | 300 mg/kg/day | reference: untreated Hexb-/- mice | number of significantly changed genes | 0 genes
Cc1n[nH]c2ccc(-c3cc(OC[C@@H](N)Cc4ccccc4)cnc3-c3ccoc3)cc12 | – | kinase binding, competitor, MIB/MS competition, item: CAK1 | Candida albicans cell lysate | 10 µM | reference: DMSO | log2 fold change | -2.18
C[C@H]1C[C@H]2CSC(N)=N[C@@]2(c2nc(NC(=O)c3ccc(OC(F)F)cn3)cs2)CO1 | – | item: Aβ1-40 | healthy adults, plasma | 15 mg once daily, day 10 | reference: placebo | percent change from baseline | -68.9%
NC(=O)c1cnc2[nH]ccc2c1N[C@@H]1[C@@H]2CC3C[C@H]1C[C@@](O)(C3)C2 | – | flow cytometry, item: CD4+ naive T cells | Japanese healthy subjects, peripheral blood | oral, 30 mg twice daily, day 4 | – | change from baseline | -0.65%
COc1nc(-c2cc(C)c(N[C@@H](C)c3cc(F)cc(F)c3)nn2)ccc1-n1cnc(C)c1 | – | item: Aβ40 | rat Sprague-Dawley male, brain | oral, 50 mg/kg daily for 9 days, 4 h after dose | reference: vehicle | change in level | 78%
OC(CCN1CCCCC1)(c1ccccc1)C1CC2C=CC1C2 (centres unmarked) | – | resting-state EEG | healthy elderly humans | oral, 4 mg, eyes open, LS mean | – | power, delta EEG, O2-Pz | 8.6 µV²
O=C(O)CNC(=O)Cc1ccccc1 | – | – | ventricular cardiomyocytes, C57BL/6 mouse | dose not given, 0.388 s | – | sarcomere length | 1.72 µm
Cc1cc(CN)cc(C)c1NC(=O)c1ccc(-c2cc(Cl)ccc2Cl)o1 | Toxoplasma gondii | parasite growth | HFF, bradyzoite, glutamine-induced | – | – | EC90 | 21.6 µM
CC(C)NCC(O)c1ccc(O)c(O)c1 (centres unmarked) | – | – | ventricular cardiomyocytes, C57BL/6 mouse | dose not given, 0.188 s | – | sarcomere length | 1.49 µm
Cn1cc(-c2ccc(-c3cncc(Cl)c3N3CCC4(CCNC4=O)CC3)cc2)cn1 | COLO 205 | gene expression, microarray, item: MKI67 mRNA | – | concentration not given, 6 h | reference: untreated cells | log2 fold change | -3.81
CN[C@@H]1COc2c(S(=O)(=O)NC(=O)Nc3c4c(cc5c3CCC5)CCC4)cnn2C1 | – | item: IL-1β | human participants, whole blood ex vivo | 450 mg single dose, 8 h, together with: LPS/ATP | reference: baseline | inhibition | 99%
N#Cc1ccn2c(-c3ccncc3)c(-c3ccc(F)cc3)nc2c1 | – | kinase binding, competitor, MIB/MS competition, item: TPK2 | Candida albicans cell lysate | 1 µM | reference: DMSO | log2 fold change | 0.202
O=C1c2ccccc2C(=O)c2c(NCCc3ccc(O)cc3)ccc(NCCc3ccc(O)cc3)c21 | Toxoplasma gondii | parasite growth, luciferase reporter | HFF, tachyzoite | 72 h | – | EC90 | 10.3 µM
CCN(Cc1nc2c(N)nc3cc(-c4cc[nH]n4)ccc3c2[nH]1)C(C)=O | – | immunohistochemistry, item: CD163+ TAMs | patients with advanced solid tumours, injected tumour lesions | dose not given, monotherapy | reference: baseline | mean fold change | 1.54

A few entries again:
SMILES | tested on | assay | system | conditions | how to read | quantity | value
C[C@H](Oc1ccc(Br)cc1-c1ccon1)C(=O)O | – | MVRC latency | human, tibialis anterior muscle | 200 mg, SAD | – | difference from placebo | -0.166 ms
